Measured values pooled from the literature.
Lines come from different studies, so protocols differ.
SLC6A2: Sodium-dependent noradrenaline transporter (SLC6A2, Homo sapiens, UniProt P23975)
UniProt P23975, sequence (whole entry, looked up): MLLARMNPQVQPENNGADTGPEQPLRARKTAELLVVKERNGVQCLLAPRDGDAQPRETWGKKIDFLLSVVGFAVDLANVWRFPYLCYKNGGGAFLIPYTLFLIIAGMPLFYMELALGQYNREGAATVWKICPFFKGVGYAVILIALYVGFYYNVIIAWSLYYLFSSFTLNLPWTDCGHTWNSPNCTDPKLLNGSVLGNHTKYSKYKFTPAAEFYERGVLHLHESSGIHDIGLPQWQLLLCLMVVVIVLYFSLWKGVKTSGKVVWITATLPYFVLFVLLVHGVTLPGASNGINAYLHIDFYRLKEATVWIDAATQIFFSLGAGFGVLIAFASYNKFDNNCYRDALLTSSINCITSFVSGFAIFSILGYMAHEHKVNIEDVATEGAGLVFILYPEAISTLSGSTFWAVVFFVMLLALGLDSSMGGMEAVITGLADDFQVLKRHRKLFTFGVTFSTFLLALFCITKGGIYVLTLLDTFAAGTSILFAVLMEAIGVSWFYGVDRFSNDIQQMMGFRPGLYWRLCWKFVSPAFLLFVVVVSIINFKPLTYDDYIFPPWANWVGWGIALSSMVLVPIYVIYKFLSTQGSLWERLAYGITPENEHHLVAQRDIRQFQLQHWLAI

For Cc1cc(O)cc(C)c1C[C@H](N)C(=O)N[C@H](C)C(=O)NCC(=O)N[C@@H](Cc1ccc(Cl)cc1)C(=O)N(C)CCC[C@@]1(c2ccc(F)cc2)OCc2cc(C#N)ccc21, the inhibition was < 50% (SLC6A2; 10 µM).
For O=c1ccc2ccccc2o1, the inhibition was -25% (SLC6A2; antagonist radioligand binding; 10 µM, SafetyScreen44).
For CC(C)CC(=O)OC[C@H]1O[C@@](C#N)(c2ccc3c(N)ncnn23)[C@H](O)[C@@H]1O, the inhibition was 3% (SLC6A2; 20 µM).
With CCN(CC)CCCC[C@H](NC(=O)[C@H](CC(C)C)NC(=O)[C@H](C)NC(=O)[C@H](Cc1ccccc1)NC(=O)c1ccc(C(C)(C)C)cc1)C(=O)N[C@@H](CO)C(=O)OC the specific binding was 113% (SLC6A2; antagonist, radioligand binding; 10 µM; reference: control binding).
For CC(C(=O)O)C(=O)O, the maximum inhibition was 21.6% (human coronavirus OC43; virus-induced cell killing; MRC-5; screen).
The inhibition of c1ccc(C(NCCNC(c2ccccc2)c2ccccc2)c2ccccc2)cc1 is reported as 98% (SLC6A2; transport, inhibitor; 10 µM).
CN[C@@]1(c2ccccc2Cl)CCCCC1=O has an inhibition of 3% (SLC6A2; radioligand binding, antagonist, radioligand displacement; 30 µM).
Cn1cccc1-c1cccnc1 gave an inhibition of -3.74% (SLC6A2; binding; 50 µM).
With C[C@H]1COCCN1c1nc(NCc2cccnc2C(F)(F)F)c2cccnc2n1 the IC50 was 8.3 µM (SLC6A2; binding; CEREP panel).
The maximum inhibition of CCOC(=O)NCCCC(=O)NCCc1ccccc1 is reported as 0% (human coronavirus OC43; virus-induced cell killing; MRC-5; maximum over 10 doses).
With CCCC[C@@H](NC(=O)[C@@H](N)Cc1c(C)cc(O)cc1C)C(=O)NCC(=O)N[C@@H](Cc1ccc(F)cc1)C(=O)N(C)CCC[C@@]1(c2ccc(F)cc2)OCc2cc(C#N)ccc21 the inhibition was < 50% (SLC6A2; 10 µM).

Repeated from above:
The inhibition of c1ccc(C(NCCNC(c2ccccc2)c2ccccc2)c2ccccc2)cc1 is reported as 98% (SLC6A2; transport, inhibitor; 10 µM).
